Published values pooled from the literature.
Lines come from different studies, so protocols differ. Numbers after ± are the reported error.
CDK2 with cyclin E: Cyclin-dependent kinase 2, with cyclin E (CDK2, Homo sapiens, UniProt P24941)
CDK2 with cyclin A2: Cyclin-dependent kinase 2, with cyclin A2 (CDK2, Homo sapiens, UniProt P24941)
CDK2: Cyclin-dependent kinase 2 (CDK2, Homo sapiens, UniProt P24941)
CDK2 with cyclin A: Cyclin-dependent kinase 2, with cyclin A (CDK2, Homo sapiens, UniProt P24941)

`Cc1ccc(C(C)C)cc1.Oc1ccccc1C=NNC1=Nc2ccccc2-c2[nH]c3ccc(Br)cc3c2C1.[Cl-].[Cl][Ru+]` has an inhibition of 43% (CDK2 with cyclin E; enzyme activity, inhibitor, radiometric; 10 µM).
`CC(C)Cn1cc(-c2nc(Nc3ccc(OCCCCCCC(=O)NO)cc3)ncc2F)nn1` has an inhibition of -4.44% (CDK2 with cyclin A2; enzyme activity, inhibitor, TR-FRET; 50 nM).
For `CC1=CC[C@]2(C(=O)O[C@H]3OC[C@@H](O)[C@@H](O)[C@@H]3OS(=O)(=O)O)CC[C@]3(C)C(CCC4[C@@]5(C)CC[C@H](O)C(C)(C)C5CC[C@]43C)C2[C@H]1C` (stereo partly shown), the inhibition was 96.2% (CDK2; enzyme activity, inhibitor; 10 µM).
`O=C(c1ccc2ccccc2c1)c1cn(-c2ccccc2)nc1C1=Nn2c(Cc3nnc4n3N=C(c3nn(-c5ccccc5)cc3C(=O)c3ccc5ccccc5c3)CS4)nnc2SC1` has an inhibition of 94.1% (CDK2; enzyme activity, inhibitor, ATP luminescence; 10 µM).
`C#CCSc1nc(Sc2nnnn2-c2ccccc2)c2nnn(Cc3ccccc3Cl)c2n1` gave an inhibition of less than 15% (CDK2 with cyclin A2; enzyme activity, inhibitor; 10 µM).
`Nc1nc(Nc2ccccc2)sc1C(=O)c1ccccc1` has an inhibition of greater than 90% (CDK2 with cyclin A; enzyme activity, inhibitor; 10 µM).
With `CC(C)Cn1cc(-c2ccnc(Nc3ccc(OCCCCCCC(=O)NO)cc3)n2)nn1` the inhibition was 49.6% (CDK2 with cyclin A2; enzyme activity, inhibitor, TR-FRET; 5 µM).
`CC(C)(C)OC(=O)NCCCNC(=O)c1cc2c(=O)[nH]c3ccccc3c2s1` gave an inhibition of 6.5% (CDK2 with cyclin E; concentration not given).
With `O=C(CCCCCCOc1ccc(Nc2ncc(F)c(-c3cn(C4CCCCC4)nn3)n2)cc1)NO` the inhibition was -5.79% (CDK2 with cyclin A2; enzyme activity, inhibitor, TR-FRET; 50 nM).
`CN1CC[C@H](c2c(O)cc(O)c3c(=O)cc(/C=C/c4c(Cl)cccc4Cl)oc23)[C@H](O)C1` gave an inhibition of 85 ± 0.5% (CDK2 with cyclin A; enzyme activity, inhibitor; 500 nM).

Excerpt of the above:
`C#CCSc1nc(Sc2nnnn2-c2ccccc2)c2nnn(Cc3ccccc3Cl)c2n1` gave an inhibition of less than 15% (CDK2 with cyclin A2; enzyme activity, inhibitor; 10 µM).
